Assay results pooled from the literature.
Each line is one published result; not all experiments were run side by side. Several values in a cell are separate wells, animals, samples, runs or records. ± marks the error that the study gave.

`Cn1c(-c2ccc(F)cc2)n[nH]c1=S`: myotube area “increased” (C2C12 CELF1-overexpressing cells; myogenic differentiation, MF20 immunostaining; 10 µM, day 6).
`O=C(C[Se]C(=O)c1ccc2ccccc2c1)Nc1cccc(C(F)(F)F)c1` — result for “mean growth percent”: -44.5% (NCI60 colon subpanel; cell growth; 10 µM, 48 h, one-dose).
`Cc1cc(C)nc(NC(=S)N2CCN(c3ccc(C(F)(F)F)cn3)CC2)c1` — result for “M+2 glycine pool”: “decreased” (MDA-MB-468; isotope labelling; concentration not given, 4 h, with: U-13C-serine).
Under “G2/M phase cells”, `CCNc1cc2c(cc1C)C1(c3cc(C)c(NCC)cc3O2)c2ccccc2C(=O)N1N=Cc1c[c-]c(-c2ccccn2)cc1.Cc1c(C)c(-c2ccc(-c3ccccc3)cc2)[c-](C)c1C.[Cl-].[Ir+3]` is recorded as 11.2 ± 1.3% (A549; PI flow cytometry; 2 x IC50, 24 h).
Under “BRD4 ChIP-seq tag count”, `CNC(=O)CCN(Cc1ccc(C(F)F)cc1)C(=O)c1cc2c(OC)ccc(-c3ccc(=O)n(C)c3)c2s1` is recorded as 22.4 a.u. (murine AML cells; BRD4 chromatin occupancy, ChIP-seq, refers to: BRD4 peak; concentration not given, chrX:93416871-93424332; baseline: DMSO, higher = more occupancy).
`CCN(CC)CCNC(=S)Nc1ccc2nc(N3CCN(CC)CC3)cc(C)c2c1` has a GFP-positive cells of 5.7% (U2OS HDR-GFP reporter; homology-directed repair, flow cytometry; 20 µM).
`O=C(C[Se]C(=O)c1cccnc1Nc1cccc(C(F)(F)F)c1)Nc1cccc(C(F)(F)F)c1` has a mean TGI of 9.34 µM (NCI60 colon subpanel; NCI60 five-dose screen).
The Jmax of `O=C(O)C1OC(Oc2ccc3c(=O)c(O)c(-c4ccccc4)oc3c2)C(O)C(O)C1O` (centres unmarked) is reported as 25.6 ± 1.01 pmol/mg/min (MDCKII-UGT1A1/MRP2 cells; glucuronide efflux, substrate).
`Cn1ncc(-c2ccc3c(=O)[nH]nc(CN)c3c2)c1-c1c(F)c(Cl)cc(OC2CC2)c1C#N` has an IC50 of 80 nM (Malme-3M; cell viability, inhibitor, CellTiter-Glo; 120 h, baseline-subtracted).
With `CCOc1cncc(-c2ccc(NC(=O)C3(c4ccnc(NS(=O)(=O)C5CC5)n4)CCOCC3)nc2)n1` the IC50 was 54 nM (OE21; cell proliferation, CellTiter-Glo; 72 h, Oesophagus cancer).
The colony count of `CO[C@@H]1[C@@H](OC(N)=O)[C@@H](O)[C@H](Oc2ccc3c(O)c(NC(=O)c4ccc(O)c(CC=C(C)C)c4)c(=O)oc3c2C)OC1(C)C` is reported as 0.1 (DLD-1 BRCA2-/-; 150 µM, replicate 1).
Under “log2 fold change”, `CN1CCCNC(=O)c2cccc(c2)C(=O)NCCCN(C)CCCNc2cccc3c2C(=O)c2cccc(c2C3=O)NCCC1` is recorded as -0.792 (SAS; RNA-Seq, refers to: SH3PXD2A mRNA; 1 µM, 6 h; baseline: untreated cells).
`O=C(O)C1OC(Oc2c(-c3ccc(O)cc3)oc3ccc(O)cc3c2=O)C(O)C(O)C1O` (centres unmarked) has a Jmax of 8.2 ± 0.37 pmol/mg/min (MDCKII-UGT1A1/MRP2 cells; glucuronide efflux, substrate).
For `CC(C)n1nc(C(F)F)cc1C(=O)Nc1ccc([C@H]2[C@@H](O)CCCc3cncn32)c(-c2ccccc2)c1`, the EC50 was 173 nM (BRD4-HiBiT cells; BRD4 degradation rescue, inhibitor; 4 h, with: dBET6 500 nM).
`Cc1ncsc1-c1ccc(C(C)NC(=O)C2CC(O)CN2C(=O)C(NC(=O)CCCCCCCCCCN2CCCC(Nc3ncc(Cl)c(Nc4ccccc4S(=O)(=O)C(C)C)n3)C2)C(C)(C)C)cc1` (centres unmarked): “log2 fold change” -4.78 (22Rv1; RNA-seq, refers to: SRMS mRNA; concentration not given; baseline: DMSO).
`CC(C)c1ccc(N(C)c2ccc3c(c2)OCC[C@H]3CNc2cnccc2C(=O)O)cc1` has an IC50 of at least 10000 nM (SAOS-2; cell growth or viability, ATP luminescence; 7 days).
For `COc1ccc(C([O-])=CC(=O)c2ccc(C(C)(C)C)cc2)cc1.[Ru+2].c1ccc(-c2cccc(-c3ccccn3)n2)nc1.c1cnccn1`, the phototoxicity index was 9.3 (DU-145; baseline: dark IC50 over light IC50).
The surface-bound fraction of `COc1cccc(OC)c1-c1cc(C(=O)NC2(C(=O)O)C3CC4CC(C3)CC2C4)nn1-c1ccc(C(=O)N(C)CCOCCN(C)C(=O)[C@H](CCCCNC(=O)[C@H](CC(C)C)NC(=O)C2OC2C(=O)O)NC(=O)CN2CCN(CC(=O)[O-])CCN(CC(=O)[O-])CCN(CC(=O)[O-])CC2)cc1C(C)C.[177Lu+3]` (mixture of isomers) is reported as 3.49 ± 0.34% (HT-29; concentration not given, 240 min; baseline: added activity).
The EC60 of `C#CCCCC(F)/C=C/C(=O)NC1(c2ccc(-c3nc4ccn5c(=O)[nH]nc5c4cc3-c3ccccc3)cc2)CCC1` (centres unmarked) is reported as 3.2 µM (MDA-MB-468; cell viability).
`CN(C)c1ccc(-n2cc(COC(=O)[C@@]3(C)C=C(C(=O)OC(C)(C)C)C(=O)CC3)nn2)cc1` gave a pERK/ERK ratio of 0.376 (HeLa; quantitative western blot; concentration not given, 10 (unit not given), with: EGF).
`Cn1ncc2cc(-c3cncc(Cl)c3N3CCC4(CCNC4=O)CC3)ccc21` — result for “log2 fold change”: 3.01 (LS174T; gene expression, microarray, refers to: JAK3 mRNA; concentration not given, 24 h; baseline: untreated cells).
With `C1=[N+]2CCCC[N+]3=Cc4ccc5[n]4[Au-]23[n]2c1ccc2-c1nc2ccccc2nc1-5.F[P-](F)(F)(F)(F)F` the TGI was 4 -log M (Malme-3M; NCI60 five-dose screen).
For `NC(Cc1ccccc1)C(=O)N1CC(=Cc2ccc(Cl)c(Cl)c2)C(=O)C(=Cc2ccc(Cl)c(Cl)c2)C1` (centres unmarked), the EC50 was 102 nM (BRD4-HiBiT cells; BRD4 degradation rescue, inhibitor; 24 h, with: dBET6 500 nM).
For `COC(=O)c1cc(NC2=NC(=O)C(=Cc3ccc(N(C)C)cc3)S2)ccc1OC(C)=O`, the metabolite level was 0.21 fold change (MCF7; GC-MS, refers to: Palmitic acid; 1 µM; baseline: DMSO).
`O=CCNCCOn1c(=O)n(OCCNCCO)c(=O)n(OCCNCCOn2c(=O)n(OCCNCCO)c(=O)n(OCCNCCO)c2=O)c1=O` has a viability of 18.5% (A549; cell growth or viability, MTT; 200 µg/mL, 72 h).
The LDH release of `CC(=O)N[C@@H](Cc1c[nH]c2ccccc12)C(=O)N[C@@H](CCC(=O)O)C(=O)N[C@@H](C)C(=O)N[C@@H](CC(=O)O)C(=O)COC(=O)c1c(C)cccc1C` is reported as 26.2% and 25.5% and 24.9% (THP-1 cells expressing FKBP-caspase-11; pyroptosis, inhibitor; concentration not given, with: B/B dimerizer).
The IC50 of `CNS(=O)(=O)Nc1nccc(Cc2c(C)c3ccc(Oc4ncccc4F)cc3oc2=O)c1F` is reported as 32.3 nM (Calu-6; cell viability; 7 days).
For `COc1ccccc1-c1ccncc1C(=O)Nc1nnc(OCc2ccc(Cl)cc2)s1`, the colony survival was 0% (PEO1 BRCA2-mutant; 1.00 µM, with: olaparib 0.25 µM).
Under “mean growth percent”, `O=C(C[Se]C(=O)c1ccccc1Nc1cccc(C(F)(F)F)c1)Nc1cccc(C(F)(F)F)c1` is recorded as -63.4% (NCI60 colon subpanel; cell growth; 10 µM, 48 h, one-dose).
The lactosylceramide level of `CCCCCCc1cccc(C(O)CC(CO)NC(=O)CCCCCCCCCCNC(C)=O)c1` (centres unmarked) is reported as 22100 pmol/sample and 12300 pmol/sample and 18100 pmol/sample (HeLa; CERT activity, HPLC-MS/MS lipidomics, refers to: lactosylceramide 16; 1 µM, 24 h, not cell-number normalised).
`CCN(C(=O)c1cc(F)ccc1Oc1nncnc1N1CCC2(C1)CN([C@H](CCCN(C)CCOC)C(C)C)C2)C(C)C` gave a GI50 of over 10 µM (NCI-H358M; cell growth or viability; 7 days).
The EC50 of `C#CCOC(=O)[C@@]1(C)C=C(C(=O)Nc2cccc(C(=O)Nc3ccc(C)c(Nc4nccc(-c5cccnc5)n4)c3)c2)C(=O)CC1` is reported as about 500 nM (SH-SY5Y MKK7 ACT; c-Jun Ser73 phosphorylation, western blot; 6 h, with: doxycycline).
`CSC(=S)N/N=C(\C)c1ccc(Nc2nnc(-c3ccc(Cl)cc3)c3ccccc23)cc1` gave a viability of 12.8% (MCF7; cell growth or viability, MTT; 0.625 µM, 24 h).
The Emax of `CCn1nc(Cl)c2c1-c1cnc(N)c(c1)O[C@H](C)c1cc(F)ccc1-c1nn(C)cc1C2` is reported as 68.9% (NCI-H3122 (EML4-ALK variant 1); cell viability).
For `COc1ccc(NC(=O)c2ccc3[nH]c(-c4ccc(N(C)C)cc4)nc3c2)cn1`, the reporter activity was 12.5 (HCT-116; refers to: CXCL8-luc luciferase reporter; concentration not given, unit not given; baseline: DMSO).
Under “log2 fold change”, `CC(=O)NCCCN(C)CCCNc1cccc2c1C(=O)c1cccc(NCCCN(C)CCCNC(C)=O)c1C2=O` is recorded as -0.426 (SAS; RNA-Seq, refers to: ATP5MC2 mRNA; 1 µM, 24 h; baseline: untreated cells).
`O=C(C[Se]C(=O)c1cc2ccccc2[nH]1)Nc1cccc(C(F)(F)F)c1`: “mean growth percent” -34.6% (NCI60 colon subpanel; cell growth; 10 µM, 48 h, one-dose).
For `CCN(CC)CC(=O)Nc1cccc(-n2cc(-c3ccc4ccc(-c5cn(-c6cccc(NC(=O)CN(CC)CC)c6)nn5)cc4c3)nn2)c1`, the fold regulation was -1.58 (RCC4; PCR angiogenesis array, refers to: ANG; 5 x IC50, 6 h, normoxia; baseline: untreated).

For quick reference, copied from above:
The EC60 of `C#CCCCC(F)/C=C/C(=O)NC1(c2ccc(-c3nc4ccn5c(=O)[nH]nc5c4cc3-c3ccccc3)cc2)CCC1` (centres unmarked) is reported as 3.2 µM (MDA-MB-468; cell viability).
`CN(C)c1ccc(-n2cc(COC(=O)[C@@]3(C)C=C(C(=O)OC(C)(C)C)C(=O)CC3)nn2)cc1` gave a pERK/ERK ratio of 0.376 (HeLa; quantitative western blot; concentration not given, 10 (unit not given), with: EGF).
`Cn1ncc2cc(-c3cncc(Cl)c3N3CCC4(CCNC4=O)CC3)ccc21` — result for “log2 fold change”: 3.01 (LS174T; gene expression, microarray, refers to: JAK3 mRNA; concentration not given, 24 h; baseline: untreated cells).
With `C1=[N+]2CCCC[N+]3=Cc4ccc5[n]4[Au-]23[n]2c1ccc2-c1nc2ccccc2nc1-5.F[P-](F)(F)(F)(F)F` the TGI was 4 -log M (Malme-3M; NCI60 five-dose screen).
For `NC(Cc1ccccc1)C(=O)N1CC(=Cc2ccc(Cl)c(Cl)c2)C(=O)C(=Cc2ccc(Cl)c(Cl)c2)C1` (centres unmarked), the EC50 was 102 nM (BRD4-HiBiT cells; BRD4 degradation rescue, inhibitor; 24 h, with: dBET6 500 nM).
For `COC(=O)c1cc(NC2=NC(=O)C(=Cc3ccc(N(C)C)cc3)S2)ccc1OC(C)=O`, the metabolite level was 0.21 fold change (MCF7; GC-MS, refers to: Palmitic acid; 1 µM; baseline: DMSO).
